Experimental data of several laboratories.
Lines come from different studies, so protocols differ. Numbers after ± are the reported error.
Target: Activated CDC42 kinase 1 (TNK2, Homo sapiens, UniProt Q07912)
Chain of UniProt Q07912 (whole entry, looked up): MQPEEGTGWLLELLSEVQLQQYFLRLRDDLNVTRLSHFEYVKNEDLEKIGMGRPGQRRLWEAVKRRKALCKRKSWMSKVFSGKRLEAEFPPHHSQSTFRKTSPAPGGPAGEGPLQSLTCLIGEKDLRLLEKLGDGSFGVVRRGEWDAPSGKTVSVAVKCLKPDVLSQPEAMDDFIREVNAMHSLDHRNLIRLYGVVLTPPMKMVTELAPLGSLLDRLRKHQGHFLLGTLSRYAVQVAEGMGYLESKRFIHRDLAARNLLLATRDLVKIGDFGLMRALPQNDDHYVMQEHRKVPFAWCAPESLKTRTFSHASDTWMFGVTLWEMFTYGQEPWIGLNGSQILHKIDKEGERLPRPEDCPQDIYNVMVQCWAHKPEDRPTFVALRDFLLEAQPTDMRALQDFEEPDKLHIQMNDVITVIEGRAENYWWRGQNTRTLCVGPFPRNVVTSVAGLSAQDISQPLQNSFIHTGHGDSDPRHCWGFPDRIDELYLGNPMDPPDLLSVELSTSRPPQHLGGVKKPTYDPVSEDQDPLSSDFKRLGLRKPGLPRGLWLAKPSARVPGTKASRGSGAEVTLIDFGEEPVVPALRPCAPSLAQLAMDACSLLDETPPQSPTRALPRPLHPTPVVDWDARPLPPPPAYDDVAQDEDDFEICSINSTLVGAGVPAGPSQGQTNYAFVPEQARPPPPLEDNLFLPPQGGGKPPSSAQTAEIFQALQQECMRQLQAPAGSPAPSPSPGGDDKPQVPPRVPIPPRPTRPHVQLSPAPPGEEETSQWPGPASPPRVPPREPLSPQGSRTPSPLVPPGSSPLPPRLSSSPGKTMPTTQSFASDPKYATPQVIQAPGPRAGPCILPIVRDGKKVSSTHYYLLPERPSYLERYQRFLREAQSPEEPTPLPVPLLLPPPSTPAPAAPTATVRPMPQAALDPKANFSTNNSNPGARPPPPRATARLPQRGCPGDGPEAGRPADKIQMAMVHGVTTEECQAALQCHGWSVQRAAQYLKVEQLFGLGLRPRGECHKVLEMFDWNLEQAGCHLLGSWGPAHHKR

Compound | test | setting | scale | endpoint | result
C=CC(=O)N1CCC[C@@H](n2nc(-c3ccc(Oc4ccccc4)cc3)c3c(N)ncnc32)C1 | kinase activity, inhibitor, HotSpot radiometric | 100 nM, together with: ATP 10 µM | – | remaining activity | 69.2 ± 0.4%
COc1cc(F)ccc1-c1ncnc(Nc2cccc(C[S@](C)(=N)=O)c2)n1 | kinase activity | 10 µM, together with: 10 µM ATP | – | remaining activity | 54%
[2H]c1cc(C)c(NC(=O)c2cnc(Nc3cc(N4CCCCC4)nc(C)n3)s2)c(Cl)c1 | – | 0.01 µM | – | inhibition | 30 to 90%
CCOc1cc(-c2nncn2C)ccc1Nc1ncc2cc(C)nc(NCC(C)(C)C)c2n1 | binding, LanthaScreen binding | 1 µM | – | displacement | 44%
COc1ccc(F)cc1C(=O)NCc1ccc(-c2nn([C@@H](C)C(F)(F)F)c(N)c2C(N)=O)cc1 | kinase activity, inhibitor, HotSpot radiometric | 100 nM, together with: ATP 10 µM | – | remaining activity | 84.1 ± 0.3%
C=CC(=O)N1CCC[C@@H](n2nc(-c3ccc(Oc4ccccc4)cc3)c3c(N)ncnc32)C1 | – | 0.1 µM | – | remaining activity | 99.9%
C=CC(=O)N1CCC(COCC(=O)N2CCN(c3nc(-c4cnc(N)nc4C(F)F)nc(N4CCOC[C@@H]4C)n3)CC2)CC1 | KINOMEscan | 1 µM | – | remaining binding | 98%
C=CC(=O)N1CCC([C@@H]2CCNc3c(C(N)=O)c(-c4ccc(Oc5ccccc5)cc4)nn32)CC1 | kinase activity, inhibitor, HotSpot radiometric | 100 nM, together with: ATP 10 µM | – | remaining activity | 96.6 ± 0.4%
Cc1cc(Nc2cc(N3CCN(C)CC3)nc(Sc3ccc(NC(=O)C4CC4)cc3)n2)[nH]n1 | kinase activity, KinaseProfiler | 0.03 µM, species human | relative to: control | remaining activity | 103%

Excerpt of the above:
Compound | test | setting | scale | endpoint | result
C=CC(=O)N1CCC(COCC(=O)N2CCN(c3nc(-c4cnc(N)nc4C(F)F)nc(N4CCOC[C@@H]4C)n3)CC2)CC1 | KINOMEscan | 1 µM | – | remaining binding | 98%
